Assay results gathered from unrelated publications.
Each numbered part is a random draw from the data of one study; scales do not carry over between parts.

Block 1
Target: RING finger protein unkempt homolog, zinc fingers 1-6, GST-SBP tag (UNK, Homo sapiens, UniProt Q9C0B0, residues 30-357)
Technique: RNA Bind-n-Seq
Molecule type: RNA
Medium: in vitro
Concentration: not given
Notes: RNA with constant flanks, ends assumed
Reference: input RNA pool
Reading: higher = stronger binding
All sequences stand within: GGGAGUUCUACAGUCCGACGAUC … CAACAGAGGAUUGAGCAUCA
Target sequence (chain): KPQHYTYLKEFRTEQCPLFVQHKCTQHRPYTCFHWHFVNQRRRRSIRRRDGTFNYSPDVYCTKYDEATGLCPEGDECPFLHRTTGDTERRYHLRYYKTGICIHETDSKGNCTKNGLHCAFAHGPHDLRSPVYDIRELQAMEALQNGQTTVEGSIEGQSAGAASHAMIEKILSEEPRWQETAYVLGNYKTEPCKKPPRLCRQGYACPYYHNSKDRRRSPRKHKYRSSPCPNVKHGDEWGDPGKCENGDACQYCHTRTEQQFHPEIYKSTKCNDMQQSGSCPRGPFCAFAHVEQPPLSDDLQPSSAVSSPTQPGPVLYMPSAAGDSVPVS
| Sequence | bound/input enrichment [ratio] |
| --- | --- |
| CAACUUGGGGAGGAUAUUCGGCGAAUUCCUAUUCAUAAUGAAGAUAUUACUUAUGAUGAAUCCGUGCUAAUGAUGCAACGAGUUUUCAGAGGAAAACUUCUGAGUAAUGAUGAAGUAACA | 0.0798 |
| ACAAGUAUUUUAAUUUAAGUUCAGUGAACUUUUUUGUAGCUGGGUUAAAUCUUUUUAUUUCCGUAUGGCCUUAUGGCAAAGAACACUGUAUUAUUUUAAUAAUCACACAAUUGUGACGGA | 0.654 |
| UUUCUCAAAUCCCUAAAUUUCUGAUUUCCAUUCAAGUCUUUUAAACUCUUUCCUGCUGAACCGCAAAGAACUUUUAUUUUCCACUUUCCUAUAUUCCUAAAAAGUGUGAACAAUGCGUUU | 0.399 |
| AAUUUUCUUACUGGCCAGAGUUCUUGGUGGAGAAGUUGCAUAUGGCCAAGUCCUUGGAGUUACCGGAUAUUCAUUACUUCCUCUCAUUGUAAUAGCCCCUGUACUUUUGGUGGUUGGAUC | 0.54 |
| GUUCUCAGUAGUCCGAACUCUAAUAUGAGCAGCAUGGUAGUUACAGCCAAUGGUAAUGACCGUAAAAAAUUUAAAGGAGAAGAUAAAAUGGAUGGUGCUCCUUCUCGUGUACUUCAUAUU | 0.959 |
| CUGCGCUGUCCGCCCUGCGGGGGAGGAACCCGGAGCACGCAGCAGAGAUGUCAGCUUAUUUACCGGAAUUGUCCAAAGCCACAGUCAUGGUGGAUGUAGGAAAGUGGCCAAUCUUCACUC | 0.356 |
| UUCCUCUGCUUGUUUUGAGCCCACCUUGGGGGCUGCUCGUGUAAUGAGAUUUUGAGAAGGCCGCUCCCGCCCAGGUGGGGUCCAGGUUUAGAGUCAGUAGCAGAUGCACCCCACACAAGC | 0.283 |
| UUUUUAUGCGACCAUUGUCUCCGUGGUUGGGCUGCAUGUAGUUUUGGCAAUUUUUGUUUUUACCGUAUGGAAGGAAGGUUUGCCACAGUGGCGGGAAAACAAAAAUGAUUAGGGCAGCAG | 0.539 |
| GAAUGGCUGGAAAGCCACCAGGAUGCGGACAUUGAAGACUUUAAAGCCAAAAAGAAGGAACCCGAAGAAAUUGUUCAGCCAAUUAUCAGCAAACUCUAUGGAAGUGGAGGCCCUCCCCCA | 0.192 |
| AGCACAUGGUUUGGGACUUGCACGUUCUGCCAUGGAGGAGUCUUCAGUGACAGUUGGCACAACCGACGUUUCUUAUCUGCCCAGUUCAUCGGAAUACAGCCUUGGCCGAUGUAAACACAC | 0.26 |
| CUCAGGUGCUUGACCAAGUACUCCCAGAUCCCUAGUGUCCUGGUCAUGAACAAGGCCGAUUGUUUGAAGCAGAAGUCAGUUCUCCUGGAGCUCACGGCAGCCCUCACUGAAGGUGUGGUC | 0.224 |

Block 2
Target: Histone acetyltransferase KAT6A, winged helix 1, GST fusion (KAT6A, Homo sapiens, UniProt Q92794, residues 1-85)
Technique: protein binding microarray
Molecule type: double-stranded DNA, one strand shown
Medium: in vitro
Concentration: not given
Notes: 8-mer, flanks averaged, mean of 2 arrays, mostly near background
Reference: not given
Reading: higher = stronger binding
Target sequence (chain): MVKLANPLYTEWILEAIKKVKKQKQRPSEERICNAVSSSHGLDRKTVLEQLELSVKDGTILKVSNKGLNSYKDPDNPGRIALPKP
| Sequence | E-score |
| --- | --- |
| AAACTCTG | -0.212 |
| CAAAGCCG | 0.269 |
| AACTGGAG | -0.129 |
| CCGGGGCG | 0.342 |
| GTAAAATA | -0.164 |
| CAGCGTGC | 0.263 |
| GCCTCTAC | -0.0846 |
| TCGGACCA | -0.0404 |
| CTATTATA | -0.189 |
| AGTAGGTG | -0.107 |
| GATTTGAA | -0.158 |
| ACACCTTA | -0.127 |
| ACTTATCT | -0.215 |
| AAGTGCGG | 0.0489 |
| TACCCTCA | -0.205 |
| ATTACAAA | -0.168 |
| ATAATATG | -0.0869 |
| GTCGCTCA | 0.0943 |
| AATCGGTA | 0.00359 |
| CCAGAGTA | 0.00851 |
| AGGCTTCA | 0.0681 |
| AAGGGGGC | 0.0273 |
| CGCGGAAG | 0.327 |
| AAGAACGT | -0.0649 |
| AAGTACCG | 0.197 |

Block 3
Target: Interferon regulatory factor 5, full length, phosphomimetic (IRF5, Homo sapiens, UniProt Q13568-2, residues 1-514, K96S/S451D/S453D/S456D/S462D)
Technique: protein-binding microarray
Molecule type: double-stranded DNA, one strand shown
Medium: in vitro
Concentration: 250 nM
Notes: 60-bp whole probe
Together with: salmon DNA 0.4 mg/ml
Reference: random background probes
Reading: higher = stronger binding
All sequences stand within: GCCTAGCAC … GTCTTGATTCGCTTGACGCTGCTG
| Sequence | log fluorescence |
| --- | --- |
| AACGGTCTCGGTCTCGGGACGTGCTAG | 0.511 z-score |
| TCAAGCTTCCATTTTCTACTGTGCTAG | 0.971 z-score |
| CCACTTTCACTTCTCCCTTTGTGCTAG | 8.63 z-score |
| ACAGGTTCTCTTTTATTTTTGTGCTAG | 0.945 z-score |
| TCAAGACTCTCTTGTCTGACTGTGCTA | -0.172 z-score |
| AACGGTATCCTTATCCTGACGTGCTAG | 0.289 z-score |
| TCATCTCTCATGTTACAACTGTGCTAG | 0.692 z-score |
| GACGGTATCATTATCCTGACGTGCTAG | 1 z-score |
| TTAGATATCCGGTATCGATTAGTGCTA | 4.89 z-score |
| TCACATTTAGAAAATGGAACTGTGCTA | 0.601 z-score |
| TGAAGACTTTCTTTCAAATGGTGCTAG | 1.92 z-score |
| GACGGTATCGGTATAGGGACGTGCTAG | 6.03 z-score |
| TATCTTATGATATATATAATAGTGCTA | 1.43 z-score |
| TTAGGTTTGGGTATCGGTTAGTGCTAG | 4.61 z-score |
| TCAAAGCAAAAATGATTACTGTGCTAG | 0.247 z-score |
| TGCTTTCTCTTTCATTGCTGCGTGCTA | 6.72 z-score |
| GTAGGTATCCTTTTCCTTTAGTGCTAG | 0.562 z-score |
| TTATGTTTCGGGACTGGGTTAGTGCTA | 6.35 z-score |
| TTAGATATCAGTTTTGATTAGTGCTAG | 2.3 z-score |
| TCAGCTTTCCTGATGGTACTGTGCTAG | 0.0846 z-score |
| TACGGACTGGGTTTCGGGACGTGCTAG | 2.1 z-score |
| GACGGTATCCTTCTCCTGTCGTGCTAG | 0.438 z-score |
| TTAGGTTTCGGTGTCGGTTAGTGCTAG | 9.47 z-score |
| TCATTATTTATTTTTACACTGTGCTAG | 1.28 z-score |
| GACGGTCTCCTACTGCTGCCGTGCTAG | -0.699 z-score |

Block 4
Target: RNA binding protein fox-1 homolog 2, RRM domain, GST-SBP tag (RBFOX2, Homo sapiens, UniProt O43251-10, residues 100-194)
Technique: RNA Bind-n-Seq
Molecule type: RNA
Medium: in vitro
Concentration: 365 nM
Notes: natural RNA segment, single round, ends assumed
Reference: no-protein control
Reading: higher = stronger binding
All sequences stand within: GGGAGUUCUACAGUCCGACGAUC … UGGAAUUCUCGGGUGCCAA
Residues (chain): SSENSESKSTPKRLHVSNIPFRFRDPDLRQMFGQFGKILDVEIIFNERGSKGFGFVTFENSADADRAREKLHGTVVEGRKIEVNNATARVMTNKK
| Sequence | RBNS enrichment (R) |
| --- | --- |
| GUCCAACAUCAGGGAACACAAGGCUCUGAAGUGGCCCUGUGUGGAAGGUUGGCAGCUGCCUGGCCUCACUGAACCUUAGUGACAAGUCUUUGCCUCAGGAGCUGACUCAU | 0.337 |
| GUGCUUGCUCUGACUCCUUGUUGCAGGGCAUAAAUGUGCCCCCCCCUCCACGCGCUGAUCGAUACUCUGCCUGUGUCCACUCAACUCAGAUUACAAACAGCUCUCUCUGC | 0.736 |
| ACUUUUUUCCUUAGGGGGAGGUUUGCCUUAAAGGCUUUUAAUUUUGUUUUGUUUGCAAACAUGUUUUAAAUUAAAUUCGGGUAAUAUUAAACAGUACAUGUUUACAAUAC | 0.811 |
| CUAUUUUAGAAGUAGGGUGUGAACAUAUAUUUUUAGAGGAAAAGCUGAUAGUCAUAGGGAAUAUAUGAUUUAUUGGACCAACACCCAAAUCAAGAAGCUUAAAACUGCAC | 0.503 |
| CCCUAAUUGUUGAUACUCAUUUUCUCCGUUUGCAAAAUGAAGAUACUCAUUGUUAGGAUCCUACUGCUGAAGGGUGCUAUGUCACUUUCUAGUGCUCUUAUAUGUCUUUA | 0.442 |
| CCAGAGUGAGUACUUACGAUAUCAAGAGGCCUUGAGUGAGCUGGCCACUGUGGUCAAAGCACGAAUUGGAAGUUCUCAGAGACAACACCAGUCAGCAGCCAAAGACCUAA | 0.956 |
| CUAGCUCCCGGUAGAGGAUCACCGGUGACAACUAUAGCAGUUGUAUUGUGUAACAAGUACUGCUCCCAGCAGCAAUUAGGGAGAAAACUAGUCUAAAUUAUUUCAACUGG | 0.363 |
| GAAGAUCCAGAUCGUACAAAAAUUAGAAAAAGAAAGAAUAAGAAGGGUCUGGUCCCAGUUCUGACUCGGCCAUUCUUACAGCUCUUUCUGGCUUUGAGUUUGCUUGUGGA | 0.718 |
| CGGCCAGGGGCCAGCCCUCCAGCCGGGCCCCGACAUAGACUUGAAAGACUGCAACAGAAACUCCCCAGCCUAGCACUCCAGAGUCCAAGGGAAGCCACCUUCCAAGAACU | 0.148 |
| UUCCUUCCAAAUAUGUUAGUACCUACCCUUUACUUUUUCCCCAAGACCAUCUCAGGGUGGAGCAUUCUGUCUAAGAGAAGAAAGAUAAGGAGGCUCCCACCCACCUCUCC | 1.34 |
| AACUGAAUAAAUAUCAGUUAAAAGAUUGCCAGCAUGGUUACAGGUAAACUGAUUUUCAGAAUUCACUGAACUACUAAAUGUGGGAUUGGAUAAUAGACUUGGAGUGCCGC | 2.26 |
| GAGCCAAGUGGGAGGGGAAUGUGCCUUCCCUUCACAGCAGGAGCCAAAAGGAGGCUCCACGGGCCUCCAGGCUGCCGUGAGAAACCCAUGACACAUGCCUCUGGCAAAGC | 0.238 |
